# Measurements pooled from the literature.
# Values joined by “and” are separate records of one study, mostly repeats; a detail may differ. ± gives the spread as reported.
# SYK SH2 domains: Tyrosine-protein kinase SYK, SH2 domains (SYK, Homo sapiens, UniProt P43405)
# nuc: Thermonuclease (nuc, Staphylococcus aureus, UniProt P00644)
# ABL2 SH2 domain: Tyrosine-protein kinase ABL2, SH2 domain (ABL2, Homo sapiens, UniProt P42684)
# Sequence of UniProt P94556 (whole entry, unmodified, looked up): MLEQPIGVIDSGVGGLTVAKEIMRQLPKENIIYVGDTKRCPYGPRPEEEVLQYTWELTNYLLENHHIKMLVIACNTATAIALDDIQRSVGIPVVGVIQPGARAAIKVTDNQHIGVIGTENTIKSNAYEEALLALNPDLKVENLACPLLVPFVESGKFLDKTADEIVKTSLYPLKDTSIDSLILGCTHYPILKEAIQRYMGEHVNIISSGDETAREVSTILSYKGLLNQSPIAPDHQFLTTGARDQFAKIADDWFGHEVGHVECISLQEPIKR
# Sequence of UniProt P42684 (whole entry, looked up): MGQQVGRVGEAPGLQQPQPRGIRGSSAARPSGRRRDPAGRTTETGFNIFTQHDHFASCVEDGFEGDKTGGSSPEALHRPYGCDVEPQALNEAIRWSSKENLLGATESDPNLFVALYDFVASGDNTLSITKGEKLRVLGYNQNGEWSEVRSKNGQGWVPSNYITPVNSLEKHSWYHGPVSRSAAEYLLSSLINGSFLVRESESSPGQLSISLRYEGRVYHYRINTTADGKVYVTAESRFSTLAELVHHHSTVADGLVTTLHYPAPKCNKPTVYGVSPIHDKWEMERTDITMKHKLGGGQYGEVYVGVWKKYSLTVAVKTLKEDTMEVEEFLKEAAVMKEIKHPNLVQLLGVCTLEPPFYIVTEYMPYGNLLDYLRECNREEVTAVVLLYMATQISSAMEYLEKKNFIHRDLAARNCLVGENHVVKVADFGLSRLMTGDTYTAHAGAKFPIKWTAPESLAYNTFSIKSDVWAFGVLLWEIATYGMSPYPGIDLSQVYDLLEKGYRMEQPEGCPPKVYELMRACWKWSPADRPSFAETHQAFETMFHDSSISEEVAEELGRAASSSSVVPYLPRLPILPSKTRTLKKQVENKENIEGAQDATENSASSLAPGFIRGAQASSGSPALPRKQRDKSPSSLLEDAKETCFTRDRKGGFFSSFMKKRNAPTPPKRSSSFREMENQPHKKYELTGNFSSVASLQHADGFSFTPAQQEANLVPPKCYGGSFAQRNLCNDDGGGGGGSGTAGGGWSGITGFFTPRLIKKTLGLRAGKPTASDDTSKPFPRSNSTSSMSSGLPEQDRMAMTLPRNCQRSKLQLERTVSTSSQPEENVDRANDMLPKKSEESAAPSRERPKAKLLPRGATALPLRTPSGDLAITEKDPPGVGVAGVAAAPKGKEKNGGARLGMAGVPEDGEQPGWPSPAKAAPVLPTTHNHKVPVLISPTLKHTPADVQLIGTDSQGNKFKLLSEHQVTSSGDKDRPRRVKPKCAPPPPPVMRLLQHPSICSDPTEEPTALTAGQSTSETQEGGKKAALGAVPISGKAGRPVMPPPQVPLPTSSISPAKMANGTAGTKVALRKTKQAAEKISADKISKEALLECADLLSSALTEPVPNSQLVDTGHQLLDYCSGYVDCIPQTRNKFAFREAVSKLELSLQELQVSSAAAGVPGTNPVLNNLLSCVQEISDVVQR
# Sequence of UniProt P45983 (whole entry, looked up): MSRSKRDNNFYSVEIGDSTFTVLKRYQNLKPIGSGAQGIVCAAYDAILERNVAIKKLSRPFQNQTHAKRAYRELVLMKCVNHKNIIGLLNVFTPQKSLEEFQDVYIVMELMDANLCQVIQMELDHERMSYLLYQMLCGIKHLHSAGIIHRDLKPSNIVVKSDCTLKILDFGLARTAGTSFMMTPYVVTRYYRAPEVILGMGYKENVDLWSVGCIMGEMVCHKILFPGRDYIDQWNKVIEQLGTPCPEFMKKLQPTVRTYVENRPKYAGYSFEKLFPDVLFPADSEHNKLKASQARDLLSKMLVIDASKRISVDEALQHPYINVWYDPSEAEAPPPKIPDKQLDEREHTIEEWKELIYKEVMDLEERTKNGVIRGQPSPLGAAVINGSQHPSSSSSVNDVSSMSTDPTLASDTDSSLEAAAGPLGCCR
# Sequence of UniProt P35228 (whole entry, unmodified, looked up): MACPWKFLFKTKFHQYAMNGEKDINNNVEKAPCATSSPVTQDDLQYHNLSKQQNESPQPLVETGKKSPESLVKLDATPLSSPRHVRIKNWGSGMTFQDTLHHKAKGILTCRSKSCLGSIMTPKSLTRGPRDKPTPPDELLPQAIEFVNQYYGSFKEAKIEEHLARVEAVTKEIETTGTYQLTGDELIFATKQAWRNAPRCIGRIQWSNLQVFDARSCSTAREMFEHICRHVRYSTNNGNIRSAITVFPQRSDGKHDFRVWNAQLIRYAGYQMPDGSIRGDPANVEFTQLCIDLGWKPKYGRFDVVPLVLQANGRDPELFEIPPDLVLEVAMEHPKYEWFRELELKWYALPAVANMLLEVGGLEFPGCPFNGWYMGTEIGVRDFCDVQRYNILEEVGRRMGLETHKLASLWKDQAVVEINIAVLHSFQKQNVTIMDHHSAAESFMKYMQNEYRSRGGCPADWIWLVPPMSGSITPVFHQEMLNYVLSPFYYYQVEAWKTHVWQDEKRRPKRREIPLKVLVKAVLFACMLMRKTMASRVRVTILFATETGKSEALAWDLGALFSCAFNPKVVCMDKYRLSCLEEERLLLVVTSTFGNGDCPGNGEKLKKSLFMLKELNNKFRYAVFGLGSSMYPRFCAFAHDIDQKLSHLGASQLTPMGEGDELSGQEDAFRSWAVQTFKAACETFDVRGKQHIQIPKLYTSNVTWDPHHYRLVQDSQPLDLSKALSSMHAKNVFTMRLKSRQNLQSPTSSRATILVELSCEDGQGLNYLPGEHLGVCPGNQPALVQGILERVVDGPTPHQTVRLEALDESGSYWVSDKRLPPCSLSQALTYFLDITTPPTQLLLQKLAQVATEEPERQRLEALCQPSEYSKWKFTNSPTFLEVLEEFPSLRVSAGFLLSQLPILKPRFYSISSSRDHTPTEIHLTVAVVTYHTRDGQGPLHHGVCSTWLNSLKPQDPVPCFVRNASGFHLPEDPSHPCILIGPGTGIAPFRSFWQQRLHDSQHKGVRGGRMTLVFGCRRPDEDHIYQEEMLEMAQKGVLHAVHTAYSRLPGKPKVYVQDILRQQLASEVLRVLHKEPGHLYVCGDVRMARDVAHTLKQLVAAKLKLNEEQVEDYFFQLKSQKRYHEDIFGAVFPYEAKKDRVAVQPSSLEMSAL
# Sequence of UniProt Q16620 (whole entry, looked up): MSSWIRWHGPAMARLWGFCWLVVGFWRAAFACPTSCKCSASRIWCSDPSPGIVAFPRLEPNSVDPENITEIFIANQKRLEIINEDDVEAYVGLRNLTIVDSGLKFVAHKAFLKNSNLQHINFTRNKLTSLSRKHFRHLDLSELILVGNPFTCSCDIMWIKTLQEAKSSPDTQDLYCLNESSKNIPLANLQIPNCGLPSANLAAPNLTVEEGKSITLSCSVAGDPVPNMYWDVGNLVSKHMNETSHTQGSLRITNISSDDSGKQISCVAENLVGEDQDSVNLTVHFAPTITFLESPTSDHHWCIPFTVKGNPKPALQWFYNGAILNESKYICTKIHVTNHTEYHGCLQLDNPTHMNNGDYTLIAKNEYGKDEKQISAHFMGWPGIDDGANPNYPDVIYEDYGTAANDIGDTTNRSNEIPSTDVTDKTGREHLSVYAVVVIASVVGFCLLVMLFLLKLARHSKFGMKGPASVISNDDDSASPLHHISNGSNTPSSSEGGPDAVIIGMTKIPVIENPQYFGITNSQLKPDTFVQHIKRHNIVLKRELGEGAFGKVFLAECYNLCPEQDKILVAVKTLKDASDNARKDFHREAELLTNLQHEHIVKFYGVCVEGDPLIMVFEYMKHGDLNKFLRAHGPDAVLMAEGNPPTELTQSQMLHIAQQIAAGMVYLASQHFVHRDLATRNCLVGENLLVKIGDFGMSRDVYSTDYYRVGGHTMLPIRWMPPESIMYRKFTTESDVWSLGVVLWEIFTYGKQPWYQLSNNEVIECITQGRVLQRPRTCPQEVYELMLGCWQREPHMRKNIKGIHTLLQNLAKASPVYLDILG
# Sequence of UniProt P78368 (whole entry, looked up): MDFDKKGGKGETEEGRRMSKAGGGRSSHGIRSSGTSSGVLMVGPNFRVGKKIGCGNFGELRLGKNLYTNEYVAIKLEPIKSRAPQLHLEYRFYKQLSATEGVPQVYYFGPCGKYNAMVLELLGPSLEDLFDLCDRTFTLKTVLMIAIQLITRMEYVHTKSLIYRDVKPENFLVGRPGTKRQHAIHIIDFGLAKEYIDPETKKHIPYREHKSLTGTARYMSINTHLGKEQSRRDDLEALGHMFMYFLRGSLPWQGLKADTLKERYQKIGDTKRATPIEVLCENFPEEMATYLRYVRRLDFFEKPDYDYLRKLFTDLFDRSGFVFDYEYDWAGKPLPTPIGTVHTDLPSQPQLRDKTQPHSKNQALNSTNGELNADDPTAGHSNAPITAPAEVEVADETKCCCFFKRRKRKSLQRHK
# Sequence of UniProt P05046 (whole entry, looked up): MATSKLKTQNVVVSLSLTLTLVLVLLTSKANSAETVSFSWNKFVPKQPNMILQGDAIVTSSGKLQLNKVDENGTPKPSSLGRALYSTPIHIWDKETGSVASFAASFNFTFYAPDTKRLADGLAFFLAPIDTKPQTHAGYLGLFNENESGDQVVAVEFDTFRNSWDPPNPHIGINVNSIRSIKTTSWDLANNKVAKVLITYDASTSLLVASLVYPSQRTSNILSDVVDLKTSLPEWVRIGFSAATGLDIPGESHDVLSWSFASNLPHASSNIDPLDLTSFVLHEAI
Structure (SMILES),target,assay,system,conditions,Kd
N=C(N)NCCC[C@H](N)C(=O)O,"Nitric oxide synthase, inducible (NOS2, Homo sapiens, UniProt P35228, E546N)",,,,235 µM and 94.4 µM
Nc1ncnc2c1ncn2[C@@H]1O[C@H](COP(=O)(O)OP(=O)(O)OP(=O)(O)O)[C@@H](O)[C@H]1O,"matB (Rhodopseudomonas palustris, UniProt Q6ND88, C106A/K488A/Q457C/R286C)",binding,Tris-HCl buffer,pH 7.5,6 ± 0.4 µM
CC[C@H](C)[C@H](NC(=O)[C@H](CC(=O)O)NC(=O)[C@H](C)NC(=O)[C@H](Cc1ccc(O)cc1)NC(=O)[C@H](CCCCN)NC(=O)c1ccc2c(c1)C(=O)OC21c2ccc(N(C)C)cc2Oc2cc(N(C)C)ccc21)C(=O)N[C@@H](CCC(=O)O)C(=O)N[C@@H](CO)C(=O)N[C@@H](CO)C(=O)N[C@@H](CC(N)=O)C(=O)N[C@@H](Cc1ccc(OP(=O)(O)O)cc1)C(=O)N[C@@H](CCSC)C(=O)N[C@@H](C)C(=O)N1CCC[C@H]1C(=O)N[C@@H](Cc1ccc(O)cc1)C(=O)N[C@@H](CC(=O)O)C(=O)N[C@@H](CC(N)=O)C(=O)N[C@@H](Cc1ccc(O)cc1)C(=O)N[C@@H](CC(=O)O)C(=O)O,SYK SH2 domains,binding,,,1.81 µM
N=C(N)NCCC[C@H](N)C(=O)O,"uncharacterized protein (Pelagibacter ubique, UniProt Q4FLC2)",isothermal titration calorimetry,Candidatus Pelagibacter ubique,direct titration,< 0.005 µM
CC(=O)N[C@H]1[C@@H](O[C@H](C)[C@H](NC(=O)[C@H](CO)NC(C)=O)C(=O)N[C@@H](CO)C(=O)NCC(=O)O)O[C@H](CO)[C@H](O)[C@@H]1O,Vicia villosa lectin,glycan microarray,,4 glycans per BSA,0.012 ± 0.003 µM
O=C(CCCOc1ccc(Cl)cc1)NC1CCOC1=O (stereo not shown),"qscR, ligand-binding domain (Pseudomonas aeruginosa, UniProt G3XD77)","ligand binding, FRET displacement",,ligand-binding domain,0.00163 µM
O=C(O)CCCN1CC=C(c2ccccc2)CC1,"Ubiquitin carboxyl-terminal hydrolase 20, ZnF-UBD domain (USP20, Homo sapiens, UniProt Q9Y2K6)",,,,380 µM
O=S(=O)(O)c1nc2cc(Cl)ccc2[nH]1,"racE (Bacillus subtilis, UniProt P94556)","binding, surface plasmon resonance",,,2 ± 1 µM
N=C(N)N,Gdx-Clo mutant A60T/A67I/K101N,tryptophan fluorescence,,from pH dependence fit,88 µM
CC(C)(C)C(=O)C(Oc1ccc(Cl)cc1)n1ccnc1 (stereo not shown),"Cytochrome P450 2D6 (CYP2D6, Homo sapiens, UniProt P10635)",binding,,"20 min, pH 7.4, purified protein, 2% DMSO",15.8 µM
O=C(Nc1nncs1)C(F)(F)I,"Mitogen-activated protein kinase 8 (MAPK8, Homo sapiens, UniProt P45983)","binding, isothermal titration calorimetry",,pH 7.4,87.7 µM and 121 µM
CC(=O)N[C@H]1[C@@H](O[C@H](C)[C@H](NC(C)=O)C(=O)N[C@H](C(=O)N[C@H](C(=O)NCC(=O)O)[C@@H](C)O[C@H]2O[C@H](CO)[C@H](O)[C@H](O)[C@H]2NC(C)=O)[C@@H](C)O[C@H]2O[C@H](CO)[C@H](O)[C@H](O)[C@H]2NC(C)=O)O[C@H](CO)[C@H](O)[C@@H]1O,"LE1 (Glycine max, UniProt P05046)",glycan microarray,,20 glycans per BSA,0.001 ± 0.0001 µM
CCCC(=O)CC(=O)N[C@H]1CCOC1=O,"qscR, DNA-bound (Pseudomonas aeruginosa, UniProt G3XD77)","DNA binding, ligand, EMSA",,"4 °C, saturating ligand",0.007 µM and 0.00708 µM
Nc1ncnc2c1ncn2[C@@H]1O[C@H](COP(=O)(O)O)[C@@H](O)[C@H]1O,nuc,"binding, ligand-coupled folding kinetics",,"pH 7.0, 22 °C, 2.7 M urea",1300 µM
CC(=O)N[C@@H]1[C@@H](O)[C@@H](O)[C@@H](CO)O[C@@H]1O,Vicia villosa lectin,glycan microarray,,4 glycans per BSA,0.099 ± 0.024 µM
CC[C@H](C)[C@H](NC(=O)[C@H](Cc1ccc(OP(=O)(O)O)cc1)NC(=O)[C@H](CCC(=O)O)NC(=O)[C@H](Cc1c[nH]cn1)NC(=O)CNC(=O)[C@H](CC(=O)O)NC(=O)[C@H](CO)NC(=O)[C@H](CO)NC(=O)[C@@H](NC(=O)[C@H](CO)NC(=O)[C@H](CCC(=O)O)NC(=O)c1ccc2c(c1)C(=O)OC21c2ccc(N(C)C)cc2Oc2cc(N(C)C)ccc21)C(C)C)C(=O)N[C@@H](Cc1ccc(O)cc1)C(=O)N[C@H](C(=O)N[C@@H](CC(=O)O)C(=O)N1CCC[C@H]1C(=O)N[C@@H](CCSC)C(=O)N[C@@H](CCC(N)=O)C(=O)N[C@@H](CC(=O)O)C(=O)O)C(C)C,ABL2 SH2 domain,binding,,,0.071 µM
CCCCCCCCCC(=O)NC1CCCC1,"qscR, DNA-bound dimer (Pseudomonas aeruginosa, UniProt G3XD77)","ligand binding, FRET displacement",,protein with DNA,0.0148 µM
CCCCCCCCCCCCCC(=O)O[C@@H]1[C@@H](C)[C@@]2(O)[C@@H](C=C(CO)C[C@]3(O)C(=O)C(C)=C[C@@H]23)[C@@H]2C(C)(C)[C@]12OC(C)=O,protein kinase C C1 domain,"binding, microscale thermophoresis",,,0.19 µM
CC[C@H](C)[C@H](NC(=O)[C@H](CC(=O)O)NC(=O)[C@H](Cc1ccccc1)NC(=O)[C@@H](NC(=O)[C@H](CC(N)=O)NC(=O)[C@@H](NC(=O)[C@H](CC(=O)O)NC(=O)c1ccc2c(c1)C(=O)OC21c2ccc(N(C)C)cc2Oc2cc(N(C)C)ccc21)C(C)C)[C@@H](C)O)C(=O)N[C@H](C(=O)N[C@H](C(=O)N[C@@H](Cc1ccc(OP(=O)(O)O)cc1)C(=O)N[C@@H](CC(C)C)C(=O)N[C@@H](CC(C)C)C(=O)N[C@@H](CCC(N)=O)C(=O)NCC(=O)N[C@@H](CCCNC(=N)N)C(=O)N[C@@H](CCCNC(=N)N)C(=O)N[C@@H](CC(C)C)C(=O)N[C@@H](CC(=O)O)C(=O)O)C(C)C)[C@@H](C)O,SYK SH2 domains,binding,,,0.162 µM
CC[C@H](CO)Nc1nc(NCc2ccc(-c3ccccn3)cc2)c2ncn(C(C)C)c2n1,"Casein kinase I isoform gamma-2 (CSNK1G2, Homo sapiens, UniProt P78368)",competition affinity chromatography,SH-SY5Y cell extract,,14.1 µM
CSCC[C@H](NC(=O)[C@H](CC(=O)O)NC(=O)c1ccc2c(c1)C(=O)OC21c2ccc(N(C)C)cc2Oc2cc(N(C)C)ccc21)C(=O)N[C@@H](CO)C(=O)N[C@@H](CCCCN)C(=O)N[C@@H](CC(=O)O)C(=O)N[C@@H](CCC(=O)O)C(=O)N[C@@H](CO)C(=O)N[C@H](C(=O)N[C@@H](CC(=O)O)C(=O)N[C@@H](Cc1ccc(OP(=O)(O)O)cc1)C(=O)N[C@H](C(=O)N1CCC[C@H]1C(=O)N[C@@H](CCSC)C(=O)N[C@@H](CC(C)C)C(=O)N[C@@H](CC(=O)O)C(=O)N[C@@H](CCSC)C(=O)N[C@@H](CCCCN)C(=O)N[C@@H](CC(=O)O)C(=O)O)C(C)C)C(C)C,"Tensin-3, SH2 domain (TNS3, Homo sapiens, UniProt Q68CZ2)",binding,,,0.34 µM
O=c1cc(-c2ccc(O)cc2)oc2cc(O)cc(O)c12,"BDNF/NT-3 growth factors receptor (NTRK2, Homo sapiens, UniProt Q16620)","binding, tryptophan fluorescence quenching",,extracellular domain,0.0098 ± 0.0063 µM
CC[C@H](C)[C@H](NC(=O)[C@H](CC(=O)O)NC(=O)[C@H](C)NC(=O)[C@H](Cc1ccc(OP(=O)(O)O)cc1)NC(=O)[C@H](CCCCN)NC(=O)[C@@H](NC(=O)[C@H](CC(=O)O)NC(=O)CNC(=O)[C@H](CCCCN)NC(=O)[C@H](CCSC)NC(=O)[C@H](CC(=O)O)NC(=O)[C@H](CC(C)C)NC(=O)[C@H](CCSC)NC(=O)c1ccc2c(c1)C(=O)OC21c2ccc(N(C)C)cc2Oc2cc(N(C)C)ccc21)C(C)C)C(=O)N[C@@H](CCC(=O)O)C(=O)N[C@@H](CO)C(=O)N[C@@H](CO)C(=O)N[C@@H](CC(N)=O)C(=O)N[C@@H](CC(=O)O)C(=O)O,SYK SH2 domains,binding,,,0.458 µM
Nc1nc2c(ncn2[C@@H]2O[C@H](COP(=O)(O)OP(=O)(O)OP(=O)(O)O)[C@@H](O)[C@H]2O)c(=O)[nH]1,"GTP 3',8-cyclase (moaA, Staphylococcus aureus, UniProt P69848, R17A)","binding, isothermal titration calorimetry",,"25 °C, R17A mutant, anaerobic",0.38 ± 0.2 µM
CC(C)C[C@H](NC(=O)[C@H](Cc1ccc(OP(=O)(O)O)cc1)NC(=O)[C@H](CCC(=O)O)NC(=O)[C@@H]1CCCN1C(=O)[C@H](CC(N)=O)NC(=O)CNC(=O)[C@@H](NC(=O)[C@H](C)NC(=O)[C@@H](NC(=O)[C@H](CO)NC(=O)[C@H](Cc1c[nH]cn1)NC(=O)c1ccc2c(c1)C(=O)OC21c2ccc(N(C)C)cc2Oc2cc(N(C)C)ccc21)[C@@H](C)O)C(C)C)C(=O)N[C@@H](CC(N)=O)C(=O)N[C@H](C(=O)N[C@H](C(=O)N[C@@H](CCC(N)=O)C(=O)N1CCC[C@H]1C(=O)N[C@H](C(=O)N[C@@H](CC(=O)O)C(=O)O)[C@@H](C)O)C(C)C)[C@@H](C)O,ABL2 SH2 domain,binding,,,0.12 µM
Nc1ncnc2c1ncn2[C@@H]1O[C@H](CO)[C@@H](OP(=O)(O)O)[C@H]1O,nuc,"binding, ligand-coupled folding kinetics",,"pH 7.0, 22 °C, 2.7 M urea",5000 µM
CSCC[C@H](NC(=O)CNC(=O)[C@H](Cc1ccccc1)NC(=O)[C@H](CC(=O)O)NC(=O)CNC(=O)c1ccc2c(c1)C(=O)OC21c2ccc(N(C)C)cc2Oc2cc(N(C)C)ccc21)C(=O)N[C@@H](CO)C(=O)N[C@@H](CCCNC(=N)N)C(=O)N[C@@H](CC(=O)O)C(=O)N[C@H](C(=O)N[C@@H](Cc1ccc(OP(=O)(O)O)cc1)C(=O)N[C@@H](CO)C(=O)N[C@H](C(=O)N[C@@H](CC(=O)O)C(=O)N[C@@H](Cc1ccc(O)cc1)C(=O)N[C@@H](Cc1ccc(O)cc1)C(=O)N[C@@H](CCCNC(=N)N)C(=O)N[C@H](C(=O)N[C@@H](CC(=O)O)C(=O)O)C(C)C)[C@@H](C)O)C(C)C,"Tyrosine-protein kinase Tec, SH2 domain (TEC, Homo sapiens, UniProt P42680)",binding,,,1.1 µM
N[C@H](CCC(=O)O)C(=O)O,"racE (Bacillus subtilis, UniProt P94556, C74A)",,,,106 µM
